Published values pooled from the literature.
Protocols differ between the studies behind these lines. ± marks the error that the study gave.
rep main protease: Replicase polyprotein 1ab, main protease (rep, Severe acute respiratory syndrome coronavirus 2, UniProt P0DTD1)
rep nsp14 N7-methyltransferase: Replicase polyprotein 1ab, nsp14 N7-methyltransferase (rep, Severe acute respiratory syndrome coronavirus 2, UniProt P0DTD1)

CCCCCCCCCC(C)CCC(C)C(=O)OC (stereo not drawn) — activity (rep main protease; binding; concentration not given): inactive
C=CCn1c(CSc2ccccc2[N+](=O)[O-])n[nH]c1=S — dsRNA unwinding activity (Replicase polyprotein 1ab, nsp13 helicase (rep, Severe acute respiratory syndrome coronavirus 2, UniProt P0DTD1); inhibitor, gel; 1 mM, 60 min): inhibited
O=C1NC(=O)C2(CC(C(=O)N3CCC[C@H]([C@H]4CCCN(C(=O)Cc5cccnc5)C4)C3)C2)N1 (stereo partly drawn) — inhibition (rep main protease; enzyme activity, inhibitor; 5 µM, run 2): 11.9%
CC[C@H](C)[C@H](NC(=O)[C@H](CC(C)C)NC(=O)[C@H](Cc1c[nH]c2ccccc12)NC(=O)[C@H](CCC(N)=O)NC(=O)[C@@H](NC(=O)[C@H](Cc1ccccc1)NC(=O)[C@H](C)NC(=O)[C@H](CCCCNC(=O)COCCOCCNC(=O)COCCOCCNC(=O)CC[C@H](NC(=O)CCCCCCCCCCCCCCCCCCC(=O)O)C(=O)O)NC(=O)[C@H](CCC(N)=O)NC(=O)[C@H](C)NC(=O)[C@@H](NC(=O)[C@H](CCCCN)NC(=O)[C@H](CC(=O)O)NC(=O)[C@H](CC(C)C)NC(=O)C(C)(C)NC(=O)[C@@H](NC(=O)[C@H](CO)NC(=O)[C@H](Cc1ccc(O)cc1)NC(=O)[C@H](CC(=O)O)NC(=O)[C@H](CO)NC(=O)[C@@H](NC(=O)[C@H](Cc1ccccc1)NC(=O)[C@@H](NC(=O)CNC(=O)[C@H](CCC(=O)O)NC(=O)C(C)(C)NC(=O)[C@@H](N)Cc1ccc(O)cc1)[C@@H](C)O)[C@@H](C)O)[C@@H](C)CC)[C@@H](C)CC)C(C)C)C(=O)N[C@@H](C)C(=O)NCC(=O)NCC(=O)N1CCC[C@H]1C(=O)N[C@@H](CO)C(=O)N[C@@H](CO)C(=O)NCC(=O)N[C@@H](C)C(=O)N1CCC[C@H]1C(=O)N1CCC[C@H]1C(=O)N1CCC[C@H]1C(=O)N[C@@H](CO)C(N)=O — injection site reaction (healthy human; 0.5 mg, single ascending dose): 33.3%
CC(C)ON(CC(=O)NO)S(=O)(=O)c1ccc(-c2ccccc2)cc1 — inhibition (rep main protease; viral replication, mKate2 reporter; SARS-CoV-2; 20 µM): -0.585%
Nc1ncnc2c([C@@H]3N[C@H](CO)[C@@H](O)[C@H]3O)c[nH]c12 — antigen-positive cells (Marburg virus; antibody staining; HeLa, Musoke; 0.4 µM): 10.1%
O=C(O)c1cc(N(Cc2ccccc2O)Cc2ccccc2O)ccc1O — inhibition (rep main protease; reporter gene (mKate2), inhibitor; 20 µM): -1.48%
Cc1cc(N[C@H]2C[C@H]3CC[C@@H]2N(C(=O)c2cnc4[nH]cc(C)c4c2)C3)nc(-c2cccnc2)n1 — inhibition (rep main protease; enzyme activity, inhibitor; 5 µM, mean of runs): 17.4%
O=S(=O)(F)Cc1ccccc1 — inhibition (rep main protease; reporter gene (mKate2), inhibitor; 20 µM): -0.885%
Cc1nn(-c2ccc(Cl)cc2)c2c1C(c1ccc(Cl)cc1Cl)C(C#N)=C(N)O2 (stereo not drawn) — inhibition (rep main protease; 3CL protease activity; 0.0001 µg/mL, 90 min, enzyme 0.1 ng/mL): 3.72%
CCCCC/C=C\C/C=C\CCCCCCCC(=O)O — Hill slope (rep nsp14 N7-methyltransferase; N7-methyltransferase activity, inhibitor, Py-FLINT): 2.02 ± 0.09
O=C(O)[C@H]1O[C@@H](Oc2cc(O)c3c(=O)cc(-c4ccc(O)cc4)oc3c2)[C@H](O)[C@@H](O)[C@@H]1O — inhibition (rep main protease; reporter gene (Gaussia luciferase), inhibitor; 20 µM): -0.554%
O=C(NCCC[C@@H](NC(=O)c1cccc2cc(=O)[nH]cc12)c1ccccc1)c1cn[nH]c(=O)c1 — inhibition (rep main protease; enzyme activity, inhibitor; 5 µM, run 1): 12.4%
N.N.N.N.N.N.N.N.N.N.N.N.N.N.[Cl-].[Cl-].[Cl-].[Cl-].[Cl-].[Cl-].[O-2].[O-2].[Ru+3].[Ru+3].[Ru+4] — Hill slope (rep nsp14 N7-methyltransferase; N7-methyltransferase activity, inhibitor, Py-FLINT): 2.2 ± 0.39
NC(=O)c1cc(C(=O)NC[C@H]2CN(C(=O)/C=C/c3cccnc3)Cc3ccccc32)c[nH]1 — inhibition (rep main protease; enzyme activity, inhibitor; 5 µM, run 1): 59.3%
COc1ccc2nc(NC(=O)CSc3nc4ccccc4c4nnnn34)sc2c1 — Hill slope (rep nsp14 N7-methyltransferase; N7-methyltransferase activity, inhibitor, Py-FLINT): 1.47 ± 0.15
Cc1nc(C)c(CCC(=O)N2C[C@]34CCC[C@@]3(C2)CN(C(=O)[C@@H]2CCC(=O)NC2)C4)c(=O)[nH]1 — inhibition (rep main protease; enzyme activity, inhibitor; 5 µM, run 1): 13.9%
C=C1[C@@H](C)[C@H]2[C@H](Cc3ccccc3)NC(=O)[C@]23[C@H](OC(C)=O)/C=C/[C@](C)(O)C[C@@H](C)C/C=C/[C@H]3[C@@H]1O — inhibition (rep main protease; reporter gene (Gaussia luciferase), inhibitor; 20 µM): 2.48%

A few entries again:
C=C1[C@@H](C)[C@H]2[C@H](Cc3ccccc3)NC(=O)[C@]23[C@H](OC(C)=O)/C=C/[C@](C)(O)C[C@@H](C)C/C=C/[C@H]3[C@@H]1O — inhibition (rep main protease; reporter gene (Gaussia luciferase), inhibitor; 20 µM): 2.48%
